Assay results gathered from unrelated publications.
Every numbered part comes from another study and shows a few of its results, in no order.

Block 1 — method: RNA Bind-n-Seq; form: RNA; matrix: in vitro; tested at: 365 nM; reference: no-protein control; reading: higher = stronger binding
Target: RNA binding protein fox-1 homolog 2, RRM domain, GST-SBP tag (RBFOX2, Homo sapiens, UniProt O43251-10, residues 100-194)
Notes: natural RNA segment, single round, ends assumed
Shared flanks, not repeated: GGGAGUUCUACAGUCCGACGAUC … UGGAAUUCUCGGGUGCCAA
Target sequence (chain): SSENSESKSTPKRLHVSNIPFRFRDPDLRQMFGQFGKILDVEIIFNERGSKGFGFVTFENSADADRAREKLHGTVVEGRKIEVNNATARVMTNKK
Oligonucleotide	RBNS enrichment (R)
CAAGUCAUUUUUGUAUUUUUCAUCUUUAAGAAUGCUUAAAAAAGCUAAUCCCUAAAAUAGUUAGAUCUUUGUAAAUGCAUAUUAAAUAAUAAAGUAUGACCCACAUUACU	0.359
UUUGUAUUGUAAAAUAACAGCUAAUUUCAUCAGGAACAAGAGAAUUAAGGGGGUCUGCAUUUUAAAUGCAGAUGUGAAGCACUUGUAUAUAAAUAAAAGUAAAUACUAUA	0.772
CCAGUGUCUUCCCUGCUGAGUACCAGGAGAGGUCCUGCCCCAUCCUCUCUCUGAAGCCAGGGCCCUUCCAUUCCAUUUAGCCUUUGGAUCAUCCUGGCUGGGAGAAGUGG	0.268
AAAACAGCUUCAAAAUAUGCAGCAAAAACCAAUACAACAAAACGAGUGGCACGAUUUAUUUCAAACUAGGCCAGCUGGGAUUCCAGCUUUUCUUCUACUAGUCUGAUGUU	1.04
AUUGUAGGGGUGCAGUUUGUCCAACUCUUUCCAACAGCCCAUUAGACACCACUAGCUGGAUAUUUCACAGGCAUCUUUGAUUCAAUAUGUCCAAAGUGGAACUCUCCAUC	0.462

Block 2 — method: protein binding microarray; form: double-stranded DNA, one strand shown; matrix: in vitro; tested at: not given; reference: not given; reading: higher = stronger binding
Target: Histone acetyltransferase KAT6A, both winged helices, GST fusion (KAT6A, Homo sapiens, UniProt Q92794, residues 1-181)
Notes: 8-mer, flanks averaged, mean of 2 arrays, mostly near background
Residues (chain): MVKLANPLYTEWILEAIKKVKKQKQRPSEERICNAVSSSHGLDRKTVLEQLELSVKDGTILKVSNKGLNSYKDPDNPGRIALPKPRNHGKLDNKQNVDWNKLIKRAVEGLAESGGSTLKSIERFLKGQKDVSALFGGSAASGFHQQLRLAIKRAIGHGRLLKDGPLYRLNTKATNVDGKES
Oligonucleotide	E-score
ACCCAGTA	-0.179
CCCCGTCC	0.172
AGGTATCG	0.0714
CGACTGCC	0.114
AGTTTTCC	0.121
ACTACAGT	-0.146

Block 3 — method: competition protein-binding microarray; form: double-stranded DNA, one strand shown; matrix: in vitro; tested at: 2 µM; together with: Cbf1 competitor, 0.05 µM; reading: higher = stronger binding
Target: Phosphate system positive regulatory protein PHO4, full length, GST-tagged (PHO4, Saccharomyces cerevisiae, UniProt P07270, residues 1-312)
Notes: whole 60-bp probe, lowest competitor level
Construct (chain): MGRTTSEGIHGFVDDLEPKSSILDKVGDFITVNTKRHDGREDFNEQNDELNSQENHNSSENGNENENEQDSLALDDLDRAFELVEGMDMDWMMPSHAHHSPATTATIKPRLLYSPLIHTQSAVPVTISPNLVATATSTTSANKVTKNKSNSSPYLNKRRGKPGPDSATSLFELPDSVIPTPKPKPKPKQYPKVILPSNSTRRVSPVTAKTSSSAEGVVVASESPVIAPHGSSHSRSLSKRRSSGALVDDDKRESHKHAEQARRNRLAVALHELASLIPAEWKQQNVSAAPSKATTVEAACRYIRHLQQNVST
Oligonucleotide	fluorescence intensity [a.u.]
GCTTGGACCATAAAATACGTGACGGAGGACACCATAGTCTTGATTCGCTTGACGCTGCTG	4180
GTCTTGTCTCATTGCCCAGTGGGTGTCCCCACTTCAGTCTTGATTCGCTTGACGCTGCTG	4430
CAAACTCTCCGAGGACACGTGCCGAACAAAGAATGTGTCTTGATTCGCTTGACGCTGCTG	20200
CATACCCAACCTTGTCACTAAACTTAAGATATTTGTGTCTTGATTCGCTTGACGCTGCTG	3620

Mixed results
Molecule	target	assay	system	conditions	scale	quantity	result
PhoQ, residues 284 288 289 292 302 303 QWQEDG	PhoP, residues 12 14 15 18 19 QYCSL (Escherichia coli, UniProt P23836)	Sort-seq, item: YFP reporter	E. coli	PhoQ-PhoP variant library, together with: 10 µM Mg2+	reference: high Mg2+ state, higher = stronger signaling	fold induction	0.752

Repeated from above (block 1):
Oligonucleotide	RBNS enrichment (R)
AUUGUAGGGGUGCAGUUUGUCCAACUCUUUCCAACAGCCCAUUAGACACCACUAGCUGGAUAUUUCACAGGCAUCUUUGAUUCAAUAUGUCCAAAGUGGAACUCUCCAUC	0.462
UUUGUAUUGUAAAAUAACAGCUAAUUUCAUCAGGAACAAGAGAAUUAAGGGGGUCUGCAUUUUAAAUGCAGAUGUGAAGCACUUGUAUAUAAAUAAAAGUAAAUACUAUA	0.772
